Experimental data collected from several papers.
Numbered parts are unrelated; each lists some results of a single study.

Set 1
Target: Sal-like protein 4, full length isoform A (SALL4, Homo sapiens, UniProt Q9UJQ4, residues 1-1053)
Sequence of UniProt Q9UJQ4 (whole entry, looked up): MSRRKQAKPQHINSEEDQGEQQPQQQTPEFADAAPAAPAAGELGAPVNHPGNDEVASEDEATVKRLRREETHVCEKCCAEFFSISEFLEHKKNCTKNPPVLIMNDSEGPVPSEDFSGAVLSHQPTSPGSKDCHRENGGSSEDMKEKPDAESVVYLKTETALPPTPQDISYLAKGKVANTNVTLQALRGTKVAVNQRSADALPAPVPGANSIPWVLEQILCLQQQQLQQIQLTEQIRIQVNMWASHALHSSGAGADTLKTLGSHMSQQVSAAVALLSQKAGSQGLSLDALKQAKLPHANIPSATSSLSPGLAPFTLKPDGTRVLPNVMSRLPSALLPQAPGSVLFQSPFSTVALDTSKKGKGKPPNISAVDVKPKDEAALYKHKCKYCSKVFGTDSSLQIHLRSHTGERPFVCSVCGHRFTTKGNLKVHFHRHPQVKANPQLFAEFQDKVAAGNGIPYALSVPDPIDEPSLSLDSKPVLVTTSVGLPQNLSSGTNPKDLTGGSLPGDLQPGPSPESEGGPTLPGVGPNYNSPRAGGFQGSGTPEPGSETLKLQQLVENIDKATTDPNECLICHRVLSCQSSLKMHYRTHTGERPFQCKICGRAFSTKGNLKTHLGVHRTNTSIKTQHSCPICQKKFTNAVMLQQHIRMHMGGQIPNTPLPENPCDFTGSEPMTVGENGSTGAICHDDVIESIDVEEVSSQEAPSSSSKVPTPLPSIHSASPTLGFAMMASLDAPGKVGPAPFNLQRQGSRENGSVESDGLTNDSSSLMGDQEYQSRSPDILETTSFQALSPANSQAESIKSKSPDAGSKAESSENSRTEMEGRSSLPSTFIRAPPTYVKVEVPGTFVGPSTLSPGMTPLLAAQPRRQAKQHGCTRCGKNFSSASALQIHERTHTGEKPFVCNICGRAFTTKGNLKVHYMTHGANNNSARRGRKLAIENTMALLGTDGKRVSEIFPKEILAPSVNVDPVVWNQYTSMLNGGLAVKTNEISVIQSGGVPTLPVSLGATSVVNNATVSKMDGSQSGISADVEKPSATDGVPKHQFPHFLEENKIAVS
Method: universal PBM
Molecule type: double-stranded DNA, one strand shown
Sample: in vitro
Concentration: 600 nM
Notes: 8-mer, flanks averaged, mean of replicates
Direction: higher = stronger binding
Endpoint: E-score
Sequence = TATTTCGA; result = 0.325
Sequence = AGGTGGAA; result = 0.0788
Sequence = GTGCGGTA; result = -0.187

Set 2
Target: RNA binding protein fox-1 homolog 2, RRM domain, GST-SBP tag (RBFOX2, Homo sapiens, UniProt O43251-10, residues 100-194)
Method: RNA Bind-n-Seq
Molecule type: RNA
Sample: in vitro
Concentration: 365 nM
Notes: natural RNA segment, single round, ends assumed
Relative to: no-protein control
Direction: higher = stronger binding
Endpoint: RBNS enrichment (R)
Residues (chain): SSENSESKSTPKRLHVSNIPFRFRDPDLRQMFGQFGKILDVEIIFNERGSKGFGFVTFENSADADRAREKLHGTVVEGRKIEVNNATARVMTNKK
Sequence = GGGAGUUCUACAGUCCGACGAUCCUUCUGCACCAACUCACCUGGCCGCUAAGUUGCUGAUGGGUAGUACCUGUACUAAACCACCUCAGAAAGGAUUUUACAGAAACGUGUUAAAGGUUUUCUCUAACUUCUCAUGGAAUUCUCGGGUGCCAA; result = 0.245
Sequence = GGGAGUUCUACAGUCCGACGAUCAGAGUAGCAAUUGCUAUUUCUAAAUUGUGAACUUUAAGUCAAUCUAGAUUUAUUUUGAGAAGUAAUUGUUCACUCUUUACUUUUGAGGCAGCCAUUAGGUUGAAAGUAUAUGGAAUUCUCGGGUGCCAA; result = 0.299
Sequence = GGGAGUUCUACAGUCCGACGAUCACGCCUAUUUUCACCAUUCUCAGGCAAAUACUCCAUGGCUGUAGUUUGACGGACUGUUCCAAUCUGCCUUAUGAAAUCCAACAAGAAUGUUAGUGGCAUCUCUGUGGUCCUGGAAUUCUCGGGUGCCAA; result = 1.46

Set 3
Target: Histone acetyltransferase KAT6A, both winged helices, GST fusion (KAT6A, Homo sapiens, UniProt Q92794, residues 1-181)
Method: protein binding microarray
Molecule type: double-stranded DNA, one strand shown
Sample: in vitro
Concentration: not given
Notes: 8-mer, flanks averaged, mean of 2 arrays, mostly near background
Relative to: not given
Direction: higher = stronger binding
Endpoint: E-score
Construct (chain): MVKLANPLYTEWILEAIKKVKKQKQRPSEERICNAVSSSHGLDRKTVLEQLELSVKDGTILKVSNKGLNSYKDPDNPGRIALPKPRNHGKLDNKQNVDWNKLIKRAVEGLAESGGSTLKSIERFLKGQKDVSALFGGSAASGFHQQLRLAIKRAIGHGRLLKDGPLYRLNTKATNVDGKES
Sequence = CCCGTGCA; result = 0.132
Sequence = GTAGCCAA; result = -0.108
Sequence = AGGCATCA; result = -0.187

Other studies, line by line
Substance = PhoQ, residues 284 288 289 292 302 303 AEGLLW; target = PhoP, residues 12 14 15 18 19 LHSVQ (Escherichia coli, UniProt P23836); assay = Sort-seq, refers to: YFP reporter; test system = E. coli; setting = PhoQ-PhoP variant library, with: 10 µM Mg2+; how to read = relative to: high Mg2+ state, higher = stronger signaling; endpoint = fold induction; result = 1.47

A few entries again (set 1):
Sequence = GTGCGGTA; result = -0.187
